Experimental data pooled from the literature.
Lines come from different studies, so protocols differ. ± gives the spread as reported.
ABCB1: ATP-dependent translocase ABCB1 (ABCB1, Homo sapiens, UniProt P08183)
Chain of UniProt P08183 (whole entry, looked up): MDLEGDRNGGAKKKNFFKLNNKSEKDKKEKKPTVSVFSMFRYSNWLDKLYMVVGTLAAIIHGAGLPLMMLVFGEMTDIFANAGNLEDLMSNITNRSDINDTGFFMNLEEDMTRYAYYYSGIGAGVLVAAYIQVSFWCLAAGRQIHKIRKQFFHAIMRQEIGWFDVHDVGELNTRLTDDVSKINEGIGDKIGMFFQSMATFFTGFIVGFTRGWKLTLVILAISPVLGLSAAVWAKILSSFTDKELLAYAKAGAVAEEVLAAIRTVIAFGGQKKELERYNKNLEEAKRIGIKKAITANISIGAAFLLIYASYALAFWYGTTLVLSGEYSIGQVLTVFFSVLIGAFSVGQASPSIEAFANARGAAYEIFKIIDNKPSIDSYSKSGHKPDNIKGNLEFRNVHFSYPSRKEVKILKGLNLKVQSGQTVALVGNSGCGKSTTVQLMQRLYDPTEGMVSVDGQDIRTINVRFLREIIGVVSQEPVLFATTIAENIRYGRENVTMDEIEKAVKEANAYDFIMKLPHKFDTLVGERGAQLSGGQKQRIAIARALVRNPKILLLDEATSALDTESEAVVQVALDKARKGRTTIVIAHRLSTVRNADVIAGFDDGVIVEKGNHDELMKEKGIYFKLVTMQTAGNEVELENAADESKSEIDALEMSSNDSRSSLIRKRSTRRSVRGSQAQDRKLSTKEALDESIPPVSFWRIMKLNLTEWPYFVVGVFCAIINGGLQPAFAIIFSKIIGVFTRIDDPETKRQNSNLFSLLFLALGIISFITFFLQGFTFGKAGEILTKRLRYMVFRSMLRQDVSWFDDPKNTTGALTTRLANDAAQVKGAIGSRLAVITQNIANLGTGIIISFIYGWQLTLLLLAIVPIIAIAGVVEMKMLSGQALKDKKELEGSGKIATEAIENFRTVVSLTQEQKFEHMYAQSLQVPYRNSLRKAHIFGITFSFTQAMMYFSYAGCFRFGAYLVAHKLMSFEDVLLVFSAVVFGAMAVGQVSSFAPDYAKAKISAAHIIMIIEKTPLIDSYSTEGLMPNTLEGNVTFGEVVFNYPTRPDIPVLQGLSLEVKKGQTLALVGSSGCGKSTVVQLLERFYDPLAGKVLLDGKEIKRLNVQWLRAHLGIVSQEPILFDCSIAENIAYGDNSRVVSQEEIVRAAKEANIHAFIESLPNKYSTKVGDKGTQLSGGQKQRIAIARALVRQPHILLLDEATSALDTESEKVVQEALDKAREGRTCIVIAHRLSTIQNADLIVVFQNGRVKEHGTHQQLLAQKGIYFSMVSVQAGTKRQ

Compound = c1ccc(N(c2ccccc2)c2ccc(-c3ccc(N(c4ccccc4)c4ccc(-c5ccc(N(c6ccccc6)c6ccc(-c7ccc(N(c8ccccc8)c8ccccc8)cc7)cc6)cc5)cc4)cc3)cc2)cc1; target or system = Cyprinus carpio; test = everted gut sac; test system = intestine; conditions = concentration not given, 24 h, 23 °C; quantity = concentration in serosal solution; result = < 0.1 µg/mL
Compound = CCCC[C@H](NC(C)=O)C(=O)N[C@H]1CCC(=O)NC[C@@H](C(=O)N[C@@H](Cc2c[nH]c3ccccc23)C(N)=O)NC(=O)[C@H](CCCNC(=N)N)NC(=O)[C@@H](Cc2ccccc2)NC(=O)[C@H](Cc2c[nH]cn2)NC1=O; test system = male rat, plasma; conditions = subcutaneous, 1 mg/kg/day, multiple doses, once daily; quantity = AUC(0-inf); result = 952 ng·h/mL
Compound = CCN(CC)c1cc2[nH]c(C3CCCCC3)nc2cc1NC(=O)NCc1ccccc1; target or system = Vero; test = cytotoxicity, Alamar Blue; conditions = 3 days, 37 °C; quantity = IC50; result = > 100 µg/mL
Compound = Cc1ccc(NC(=O)CSc2nnc(Cn3cnc4c3c(=O)n(C)c(=O)n4C)n2-c2ccccc2)cc1C; target or system = bovine erythrocytes; conditions = 1 mg/mL, 30 min, 37 °C; quantity = haemolysis; result = 5.9%
Compound = COc1ccccc1C(=O)N1CCN(c2cc(-c3ccccc3)nc3cc(-c4cccc(Cl)c4)nn23)CC1; target or system = ABCB1; test = JC-1 efflux, inhibitor; test system = Jurkat-DNR; quantity = IC50; result = 4730 ± 1780 nM
Compound = CCCCNC(=O)Nc1cc2nc(C3CCCCC3)[nH]c2cc1N(C)C; target or system = Vero; test = cytotoxicity, Alamar Blue; conditions = 3 days, 37 °C; quantity = IC50; result = > 100 µg/mL
Compound = O=C(c1ccoc1)N1CCN(c2cc(-c3ccoc3)nc3cc(-c4ccccc4)nn23)CC1; target or system = ABCB1; test = JC-1 efflux, inhibitor; test system = Jurkat-DNR; quantity = IC50; result = 1600 nM
Compound = CCCOCC(=O)Nc1cc2nc(C3CCCCC3)[nH]c2cc1N(C)C; target or system = Vero; test = cytotoxicity, Alamar Blue; conditions = 3 days, 37 °C; quantity = IC50; result = < 50 µg/mL
Compound = C#C[C@]1(COP(=O)(O)OP(=O)(O)OP(=O)(O)O)O[C@@H](n2cnc3c(N)nc(F)nc32)C[C@@H]1O; target or system = human PBMC tumour model; test system = host not given, plasma; conditions = oral, 5 mg, single dose, fasted; quantity = Tmax; result = 9 h
Compound = O=C(c1ccc(Cl)cc1)N1CCN(c2cc(-c3ccccc3)nc3cc(-c4cccc(Cl)c4)nn23)CC1; target or system = ABCB1; test = JC-1 efflux, inhibitor; test system = Jurkat-DNR; quantity = IC50; result = 2360 ± 700 nM
Compound = CCN(CC)CCNC(=O)c1c(C)[nH]c(/C=C2\C(=O)Nc3ccc(F)cc32)c1C; test system = human, plasma; conditions = oral, 20 mg/m2, day 28; quantity = minimum trough plasma concentration; result = 23.4 ng/mL
Compound = CC(C)(C)c1cc(CCC(=O)OCC(COC(=O)CCc2cc(C(C)(C)C)c(O)c(C(C)(C)C)c2)(COC(=O)CCc2cc(C(C)(C)C)c(O)c(C(C)(C)C)c2)COC(=O)CCc2cc(C(C)(C)C)c(O)c(C(C)(C)C)c2)cc(C(C)(C)C)c1O; target or system = Cyprinus carpio; test = everted gut sac; test system = intestine; conditions = concentration not given, 24 h, 23 °C; quantity = concentration in serosal solution; result = 0.3 ± 0.2 µg/mL
Compound = CC(C)(C)c1cc(C(C)(C)C)c(NC(=O)c2c[nH]c3ccccc3c2=O)cc1O; target or system = Calu-3; conditions = concentration not given, 4 h, basal to apical transport; quantity = permeated amount; result = 3 to 12%
Compound = COc1ccc(CC(=O)Nc2cc3nc(C4CCCCC4)[nH]c3cc2N(C)C)cc1; target or system = Vero; test = cytotoxicity, Alamar Blue; conditions = 3 days, 37 °C; quantity = IC50; result = > 100 µg/mL
Compound = Cc1cc(N2CCN(C(=O)c3ccco3)CC2)n2nc(-c3cccc(Cl)c3)cc2n1; target or system = ABCB1; test = JC-1 efflux, inhibitor; test system = Jurkat-DNR; quantity = IC50; result = 5880 ± 1170 nM
Compound = CC[C@H](C)[C@@H]1NC(=O)[C@H](Cc2ccc(O)cc2)NC(=O)[C@@H](N)CSSC[C@@H](C(=O)N2CCC[C@H]2C(=O)N[C@@H](CC(C)C)C(=O)NCC(N)=O)NC(=O)[C@H](CC(N)=O)NC(=O)[C@H](CCC(N)=O)NC1=O; test = microdialysis, radioimmunoassay; test system = knock-out male mice lacking compound, amygdala extracellular fluid; conditions = intraperitoneal, 12 µg total, time to half of Cmax; quantity = half-life; result = 0.245 ± 0.0283 h
Compound = COc1ccc(C(=O)Nc2cc3nc(C4CCCCC4)[nH]c3cc2N(C)C)cc1; target or system = Vero; test = cytotoxicity, Alamar Blue; conditions = 3 days, 37 °C; quantity = IC50; result = > 100 µg/mL
Compound = COc1cccc(-c2cc3nc(-c4ccccc4)cc(N4CCN(C(=O)c5ccoc5)CC4)n3n2)c1; target or system = ABCB1; test = JC-1 efflux, inhibitor; test system = Jurkat-DNR; quantity = IC50; result = 2260 ± 830 nM
Compound = c1ccc2c(c1)ccc1ccccc12; target or system = Cyprinus carpio; test = everted gut sac; test system = intestine; conditions = concentration not given, 24 h, 23 °C; quantity = concentration in serosal solution; result = 3550 ± 639 µg/mL
Compound = CCCCNC(=O)Nc1cc2nc(C3CCCCC3)[nH]c2cc1N1CCCC1; target or system = Vero; test = cytotoxicity, Alamar Blue; conditions = 3 days, 37 °C; quantity = IC50; result = > 100 µg/mL
Compound = O=C(c1ccoc1)N1CCN(c2cc(-c3cccc(F)c3)nc3cc(-c4ccccc4)nn23)CC1; target or system = ABCB1; test = JC-1 efflux, inhibitor; test system = Jurkat-DNR; quantity = IC50; result = 7070 nM
Compound = CCCN(CCC)c1cc2[nH]c(C3CCCCC3)nc2cc1NC(=O)c1ccccc1; target or system = Vero; test = cytotoxicity, Alamar Blue; conditions = 3 days, 37 °C; quantity = IC50; result = > 100 µg/mL
Compound = O=C(c1ccncc1)N1CCN(c2cc(-c3ccccc3)nc3cc(-c4cccc(Cl)c4)nn23)CC1; target or system = ABCB1; test = JC-1 efflux, inhibitor; test system = Jurkat-DNR; quantity = IC50; result = 1160 ± 300 nM
Compound = CCCCCC(=O)Nc1cc2nc(C3CCCCC3)[nH]c2cc1N1CCCC1; target or system = Vero; test = cytotoxicity, Alamar Blue; conditions = 3 days, 37 °C; quantity = IC50; result = > 100 µg/mL
Compound = Cc1cc(OCc2nnc(SC3CCCC3)n2-c2cccnc2)ccc1-c1ccc(S(C)(=O)=O)cc1; target or system = Huh-7 cells, uninfected; conditions = 0.5 µM, 5 days; quantity = viability; result = 42 ± 4%
